Experimental data from different studies.
Lines come from different studies, so protocols differ. Several values in a cell are separate wells, animals, samples, runs or records. ± gives the spread as reported.

`CC(C)=CCC[C@](C)(O[C@@H]1O[C@H](CO)[C@@H](O)[C@H](O)[C@H]1O)[C@H]1CC[C@]2(C)[C@@H]1[C@H](O)C[C@@H]1[C@@]3(C)CC[C@H](O)C(C)(C)[C@@H]3CC[C@]12C` has a remaining amount of 104 ± 8.3% (rat plasma; 1 ng/mL, 24 h, room temperature).
`CCCCN1CCC(COC(=O)c2ccc(N)c(O[11CH3])c2)CC1` — result for “remaining parent compound”: 99.3% (rhesus monkey whole blood; 30 min, with: NaF 9.5 mM).
The remaining peptide of `CC(C)C[C@@H]1NC(=O)[C@H](CCCCN)NC(=O)[C@H](CC(N)=O)NC(=O)[C@H](CCCNC(=N)N)NC(=O)[C@H]([C@@H](C)O)NC(=O)[C@@H]2CSSC[C@@H]3NC(=O)[C@H]([C@@H](C)O)NC(=O)CNC(=O)CNC(=O)[C@H](C(C)C)NC(=O)[C@@H]4CSSC[C@H](NC(=O)[C@H]([C@@H](C)O)NC(=O)[C@H](CSSC[C@H](NC(=O)[C@H](C(C)C)NC(=O)[C@@H]5CCCN5C1=O)C(=O)NCC(=O)N[C@@H](CCC(=O)O)C(=O)N[C@@H]([C@@H](C)O)C(=O)N4)NC(=O)CNC(=O)[C@@H]1CCCN1C(=O)[C@H]([C@@H](C)O)NC(=O)[C@H](CC(N)=O)NC3=O)C(=O)N[C@@H](CO)C(=O)N[C@@H](Cc1c[nH]c3ccccc13)C(=O)N1CCC[C@H]1C(=O)N[C@@H](C(C)C)C(=O)N2` is reported as 96.1 ± 0.3% (HPLC; ammonium bicarbonate 0.1 M; 180 µM, 7 days, pH 9.0, 37 °C, deamidation stability).
`CC(=O)OC/C(C)=C/CCP(=O)(OCOC(=O)CC1CCCCC1)Oc1ccc(C(C)C)cc1` (stereo not drawn) gave a remaining compound of 0.021% (50% Sprague-Dawley rat plasma; 100 µM, 2 h, pH 7.5, 37 °C).
With `CSCC[C@H](NC(=O)[C@H](CCCNC(=N)N)NC(=O)[C@H](CCCNC(=N)N)NC(=O)[C@H](CCCCN)NC(=O)[C@H](C)NC(=O)[C@H](CCCNC(=N)N)NC(=O)CNC(=O)[C@@H](NC(=O)CCNC(=O)c1ccc2c(c1)C(=O)OC21c2ccc(O)cc2Oc2cc(O)ccc21)[C@@H](C)O)C(=O)N[C@@H](CSCB(O)O)C(=O)N[C@@H](Cc1ccc(O)cc1)C(=O)N[C@@H](CSCB(O)O)C(=O)N[C@@H](CCCNC(=N)N)C(=O)N[C@@H](CCCNC(=N)N)C(N)=O` the remaining peptide was 50.6% and 47.4% and 50% (HPLC peak area; 50% human serum; 100 µM, 12 h, pH 7.4, 37 °C; relative to: 0 h).
`CC(C)C[C@@H]1NC(=O)CNC(=O)[C@H](CC(N)=O)NC(=O)[C@H](CCCNC(=N)N)NC(=O)[C@H]([C@@H](C)O)NC(=O)[C@@H]2CSSC[C@@H]3NC(=O)[C@H]([C@@H](C)O)NC(=O)CNC(=O)CNC(=O)[C@H](C(C)C)NC(=O)[C@@H]4CSSC[C@H](NC(=O)[C@H]([C@@H](C)O)NC(=O)[C@H](CSSC[C@H](NC(=O)[C@H](C(C)C)NC(=O)[C@@H]5CCCN5C1=O)C(=O)NCC(=O)N[C@@H](CCC(=O)O)C(=O)N[C@@H]([C@@H](C)O)C(=O)N4)NC(=O)CNC(=O)[C@H](CCCCN)NC(=O)[C@H]([C@@H](C)O)NC(=O)[C@H](CC(N)=O)NC3=O)C(=O)N[C@@H](CO)C(=O)N[C@@H](Cc1c[nH]c3ccccc13)C(=O)N1CCC[C@H]1C(=O)N[C@@H](C(C)C)C(=O)N2` gave a remaining peptide of 99 ± 0.2% (HPLC; water; 180 µM, 14 days, 37 °C, deamidation stability).
The remaining compound of `CC[C@@H](C)[C@@H](NC(=O)[C@@H](Cc1ccc(O)cc1)NC(=O)[C@H]1CCCN1C(=O)[C@@H](CCCNC(=N)N)NC(=O)[C@H](N)Cc1c[nH]cn1)C(=O)N[C@H](C)C(=O)N[C@H](Cc1c[nH]cn1)C(=O)N[C@H](CCCNC(=N)N)C(=O)N[C@H](CCCCNC(=O)c1cccc(S(=O)(=O)F)c1)C(=O)N[C@H](Cc1ccc(O)cc1)C(=O)N[C@H](CO)C(=O)N[C@H](Cc1ccccc1)C(N)=O` is reported as 107% and 81.6% (10% human serum; 12 h).
`CCCCCCCCCCCCN1/C(=C\C=C\C2=[N+](CCCCCCCCCCCC)c3ccccc3C2(C)C)C(C)(C)c2ccccc21.[O-][Cl+3]([O-])([O-])[O-]`: “remaining intact compound” over 95% (HPLC; mouse serum; 24 h, 37 °C).
For `COc1cc(N2CC[C@@]3(O)C(=O)c4cc(C)c(C)cc4N=C23)ccn1`, “remaining parent compound” read 93% (aqueous solution; 24 h, bright light).
`CC(C)C[C@@H]1NC(=O)CNC(=O)[C@H](CC(N)=O)NC(=O)[C@H](CCCNC(=N)N)NC(=O)[C@H]([C@@H](C)O)NC(=O)[C@@H]2CSSC[C@@H]3NC(=O)[C@H]([C@@H](C)O)NC(=O)CNC(=O)CNC(=O)[C@H](C(C)C)NC(=O)[C@@H]4CSSC[C@H](NC(=O)[C@H]([C@@H](C)O)NC(=O)[C@H](CSSC[C@H](NC(=O)[C@H](C(C)C)NC(=O)[C@@H]5CCCN5C1=O)C(=O)NCC(=O)N[C@@H](CCC(=O)O)C(=O)N[C@@H](CCCCN)C(=O)N4)NC(=O)CNC(=O)[C@@H]1CCCN1C(=O)[C@H]([C@@H](C)O)NC(=O)[C@H](CC(N)=O)NC3=O)C(=O)N[C@@H](CO)C(=O)N[C@@H](Cc1c[nH]c3ccccc13)C(=O)N1CCC[C@H]1C(=O)N[C@@H](C(C)C)C(=O)N2` has a remaining peptide of 56 ± 3% (HPLC; ammonium bicarbonate 0.1 M; 180 µM, 14 days, pH 9.0, 37 °C, deamidation stability).
The remaining compound of `CC[C@@H](C)[C@@H](NC(=O)[C@@H](Cc1ccc(O)cc1)NC(=O)[C@H]1CCCN1C(=O)[C@@H](CCCNC(=N)N)NC(=O)[C@H](N)Cc1c[nH]cn1)C(=O)N[C@H](C)C(=O)N[C@H](Cc1c[nH]cn1)C(=O)N[C@H](CCCNC(=N)N)C(=O)N[C@@H](C(=O)N[C@H](Cc1ccc(O)cc1)C(=O)N[C@H](CO)C(=O)N[C@H](Cc1ccccc1)C(N)=O)C(C)C` is reported as 99% and 98.8% and 97.7% (10% human serum; 6 h).
For `CC(C)C[C@@H]1NC(=O)CNC(=O)[C@H](CC(N)=O)NC(=O)[C@H](CCCNC(=N)N)NC(=O)[C@H]([C@@H](C)O)NC(=O)[C@@H]2CSSC[C@@H]3NC(=O)[C@H]([C@@H](C)O)NC(=O)CNC(=O)CNC(=O)[C@H](C(C)C)NC(=O)[C@@H]4CSSC[C@H](NC(=O)[C@H]([C@@H](C)O)NC(=O)[C@H](CSSC[C@H](NC(=O)[C@H](C(C)C)NC(=O)[C@@H]5CCCN5C1=O)C(=O)NCC(=O)N[C@@H](CCCCN)C(=O)N[C@@H]([C@@H](C)O)C(=O)N4)NC(=O)CNC(=O)[C@@H]1CCCN1C(=O)[C@H]([C@@H](C)O)NC(=O)[C@H](CC(N)=O)NC3=O)C(=O)N[C@@H](CO)C(=O)N[C@@H](Cc1c[nH]c3ccccc13)C(=O)N1CCC[C@H]1C(=O)N[C@@H](C(C)C)C(=O)N2`, the remaining peptide was 98.2 ± 0.1% (HPLC; water; 180 µM, 14 days, 37 °C, deamidation stability).
With `CC[C@H](C)[C@H](N)C(=O)N[C@H](CC(C)C)C(=O)N[C@@H](CCCNC(=N)N)C(=O)N[C@@H](Cc1c[nH]c2ccccc12)C(=O)N[C@@H](CO)C(=O)N[C@@H](CCCNC(=N)N)C(=O)N[C@@H](CCCCN)C(=O)N[C@@H](CC(C)C)C(=O)N1CCC[C@H]1C(=O)N[C@@H](CS)C(=O)N[C@H](C(=O)N[C@@H](CO)C(N)=O)C(C)C` the remaining activity was 63 ± 12% (12G5 competition, SUP-T1 cells; human plasma; 20 µM, 2 h, 37 °C).
With `CC(C)C[C@@H]1NC(=O)CNC(=O)[C@H](CC(N)=O)NC(=O)[C@H](CCCNC(=N)N)NC(=O)[C@H]([C@@H](C)O)NC(=O)[C@@H]2CSSC[C@@H]3NC(=O)[C@H]([C@@H](C)O)NC(=O)CNC(=O)CNC(=O)[C@H](C(C)C)NC(=O)[C@@H]4CSSC[C@H](NC(=O)[C@H](CCCCN)NC(=O)[C@H](CSSC[C@H](NC(=O)[C@H](C(C)C)NC(=O)[C@@H]5CCCN5C1=O)C(=O)NCC(=O)N[C@@H](CCC(=O)O)C(=O)N[C@@H]([C@@H](C)O)C(=O)N4)NC(=O)CNC(=O)[C@@H]1CCCN1C(=O)[C@H]([C@@H](C)O)NC(=O)[C@H](CC(N)=O)NC3=O)C(=O)N[C@@H](CO)C(=O)N[C@@H](Cc1c[nH]c3ccccc13)C(=O)N1CCC[C@H]1C(=O)N[C@@H](C(C)C)C(=O)N2` the remaining peptide was 61.3 ± 1.6% (HPLC; ammonium bicarbonate 0.1 M; 180 µM, 14 days, pH 9.0, 37 °C, deamidation stability).
With `CSCC[C@H](NC(=O)[C@H](CCCCN)NC(=O)[C@H](CCCNC(=N)N)NC(=O)[C@H](CO)NC(=O)[C@H](Cc1c[nH]c2ccccc12)NC(=O)[C@H](CCCNC(=N)N)NC(=O)[C@H](CC(C)C)NC(=O)[C@H](N)Cc1ccccc1)C(=O)N1CCC[C@H]1C(=O)N[C@@H](CS)C(=O)N[C@H](C(=O)N[C@@H](CO)C(N)=O)C(C)C` the remaining activity was 48 ± 6% (12G5 competition, SUP-T1 cells; human plasma; concentration not given, 8 h).

Repeated from above:
With `CSCC[C@H](NC(=O)[C@H](CCCCN)NC(=O)[C@H](CCCNC(=N)N)NC(=O)[C@H](CO)NC(=O)[C@H](Cc1c[nH]c2ccccc12)NC(=O)[C@H](CCCNC(=N)N)NC(=O)[C@H](CC(C)C)NC(=O)[C@H](N)Cc1ccccc1)C(=O)N1CCC[C@H]1C(=O)N[C@@H](CS)C(=O)N[C@H](C(=O)N[C@@H](CO)C(N)=O)C(C)C` the remaining activity was 48 ± 6% (12G5 competition, SUP-T1 cells; human plasma; concentration not given, 8 h).
